Measured values from different studies.
± marks the error that the study gave.
OPRD1: Delta-type opioid receptor (OPRD1, Homo sapiens, UniProt P41143)

Protein sequences, listed by entry. Tags and fused reporters are not part of them.
UniProt P41143, whole entry: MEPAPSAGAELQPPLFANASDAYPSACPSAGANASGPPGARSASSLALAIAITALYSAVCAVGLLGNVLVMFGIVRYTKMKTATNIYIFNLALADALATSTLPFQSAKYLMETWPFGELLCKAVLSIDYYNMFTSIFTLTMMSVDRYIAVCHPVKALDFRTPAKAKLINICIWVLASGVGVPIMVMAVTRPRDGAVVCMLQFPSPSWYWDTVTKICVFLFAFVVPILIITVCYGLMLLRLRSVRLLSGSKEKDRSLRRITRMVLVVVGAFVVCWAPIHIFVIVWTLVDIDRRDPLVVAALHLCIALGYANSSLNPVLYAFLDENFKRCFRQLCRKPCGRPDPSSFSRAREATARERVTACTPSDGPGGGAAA
UniProt P31751, whole entry: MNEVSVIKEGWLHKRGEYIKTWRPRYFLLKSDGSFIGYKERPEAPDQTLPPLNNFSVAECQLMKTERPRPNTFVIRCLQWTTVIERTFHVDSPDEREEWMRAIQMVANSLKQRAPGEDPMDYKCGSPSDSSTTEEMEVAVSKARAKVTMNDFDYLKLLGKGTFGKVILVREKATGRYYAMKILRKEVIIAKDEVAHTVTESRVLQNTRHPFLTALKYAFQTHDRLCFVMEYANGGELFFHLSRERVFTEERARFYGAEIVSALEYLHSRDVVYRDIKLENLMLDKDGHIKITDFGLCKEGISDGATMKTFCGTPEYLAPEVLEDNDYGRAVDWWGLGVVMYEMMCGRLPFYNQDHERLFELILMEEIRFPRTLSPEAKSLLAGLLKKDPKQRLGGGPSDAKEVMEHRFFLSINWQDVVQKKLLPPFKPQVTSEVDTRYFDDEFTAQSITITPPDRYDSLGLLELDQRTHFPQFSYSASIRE
UniProt Q96J92, whole entry: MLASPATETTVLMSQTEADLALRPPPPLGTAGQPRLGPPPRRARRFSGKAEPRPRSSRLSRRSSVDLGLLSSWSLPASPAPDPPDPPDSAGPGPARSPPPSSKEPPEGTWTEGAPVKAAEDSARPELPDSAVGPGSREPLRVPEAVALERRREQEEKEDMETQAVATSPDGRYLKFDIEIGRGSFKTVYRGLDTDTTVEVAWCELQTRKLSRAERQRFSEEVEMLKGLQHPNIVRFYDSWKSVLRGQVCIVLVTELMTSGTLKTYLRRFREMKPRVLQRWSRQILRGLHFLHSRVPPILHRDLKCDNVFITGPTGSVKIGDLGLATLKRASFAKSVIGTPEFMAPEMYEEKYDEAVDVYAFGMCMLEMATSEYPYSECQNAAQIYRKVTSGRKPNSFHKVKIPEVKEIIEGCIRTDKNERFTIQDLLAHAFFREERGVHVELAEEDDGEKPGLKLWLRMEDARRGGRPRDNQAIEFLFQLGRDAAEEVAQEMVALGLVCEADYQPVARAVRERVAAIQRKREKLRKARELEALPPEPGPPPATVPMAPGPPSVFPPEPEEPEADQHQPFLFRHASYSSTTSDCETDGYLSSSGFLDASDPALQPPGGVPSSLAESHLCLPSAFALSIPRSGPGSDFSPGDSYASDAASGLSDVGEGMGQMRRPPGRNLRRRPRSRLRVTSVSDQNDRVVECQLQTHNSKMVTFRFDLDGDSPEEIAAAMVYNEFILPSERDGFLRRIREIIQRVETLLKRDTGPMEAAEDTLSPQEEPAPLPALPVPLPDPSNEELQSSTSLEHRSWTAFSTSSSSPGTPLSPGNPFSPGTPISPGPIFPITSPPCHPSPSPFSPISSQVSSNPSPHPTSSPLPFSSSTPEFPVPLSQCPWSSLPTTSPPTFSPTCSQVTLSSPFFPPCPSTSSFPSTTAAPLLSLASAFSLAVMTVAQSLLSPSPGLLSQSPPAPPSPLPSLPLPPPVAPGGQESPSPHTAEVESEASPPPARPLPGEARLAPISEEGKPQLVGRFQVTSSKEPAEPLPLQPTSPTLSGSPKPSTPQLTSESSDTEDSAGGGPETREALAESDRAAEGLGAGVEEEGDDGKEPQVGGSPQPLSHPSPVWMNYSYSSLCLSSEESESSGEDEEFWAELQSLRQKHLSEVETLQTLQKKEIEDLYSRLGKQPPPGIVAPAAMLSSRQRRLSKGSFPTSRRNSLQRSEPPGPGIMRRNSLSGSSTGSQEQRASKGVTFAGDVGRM

Structure (SMILES)	target	assay	test system	conditions	scale	quantity	result
CN1CC[C@]23c4c5ccc(O)c4O[C@H]2[C@H](NC(=O)c2cccc(I)c2)CC[C@@]3(O)[C@H]1C5	OPRD1	radioligand binding, competition binding	CHO cells, transfected, cell membranes	together with: [3H]DPDPE 1 nM	–	Ki	70.8 ± 15.4 nM
CO[C@]12CC[C@@]3(C[C@@H]1[C@](C)(O)CC(C)(C)C)[C@H]1Cc4ccc(O)c5c4[C@@]3(CCN1CC1CC1)[C@H]2O5	OPRD1	radioligand binding	CHO	together with: [3H]Cl-DPDPE	–	Ki	1.27 ± 0.21 nM
COCO[C@H]1C[C@@H](C(=O)OC)[C@]2(C)CC[C@H]3C(=O)O[C@H](c4ccoc4)C[C@]3(C)[C@H]2C1=O	OPRD1	radioligand binding	CHO expressing OPRD1	together with: [3H]DADLE	–	Ki	2840 ± 180 nM
O=C1CC2CC(c3cccc(O)c3)(CCN2CCc2ccccc2)C1 (stereo not shown)	OPRD1	binding	CHO cells expressing human DOR	together with: [3H]DADLE	–	Ki	3540 ± 273 nM
CO[C@]12CC[C@@]3(C[C@@H]1[C@@](C)(O)C(C)(C)C)[C@H]1Cc4c(Cl)cc(O)c5c4[C@@]3(CCN1CC1CC1)[C@H]2O5	OPRD1	radioligand binding	CHO	together with: [3H]Cl-DPDPE	–	Ki	17.2 ± 0.26 nM
CC#C/C(=N\OC[C@H]1COCCN1)c1ccc2ncnc(Nc3ccc(OCc4cccc(F)c4)c(Cl)c3)c2c1	AKT2 (Homo sapiens, UniProt P31751)	kinase activity	–	10 µM	–	inhibition	-22.4%
CO[C@]12CC[C@@]3(C[C@@H]1[C@](C)(O)CC(C)(C)c1ccccc1)[C@H]1Cc4ccc(O)c5c4[C@@]3(CCN1CC1CC1)[C@H]2O5	OPRD1	radioligand binding	CHO	together with: [3H]Cl-DPDPE	–	Ki	3.66 ± 0.92 nM
CO[C@]12CC[C@@]3(C[C@@H]1[C@H](O)c1ccccc1)[C@H]1Cc4ccc(O)c5c4[C@@]3(CCN1CC1CC1)[C@H]2O5	OPRD1	G-protein activation, agonist	–	–	–	EC50	4.54 ± 0.58 nM
CCCN1CCN(c2ccc3c(c2)C2CC3CCN2C(=O)OCc2ccccc2)CC1 (stereo not shown)	OPRD1	binding, radioligand binding	–	–	–	Ki	> 10000 nM
CN1CC[C@]2(c3cccc(O)c3)C[C@H]3CCCC[C@@H]3[C@H]1C2 (relative stereo)	OPRD1	binding	CHO cells expressing human DOR	exploratory, together with: [3H]DADLE	–	Ki	116 ± 2.87 nM
N=C(N)NCC(=O)NCC1(Cc2ccccc2)CCN(Cc2ccccc2)CC1	OPRD1	binding	–	together with: [3H]DPDPE	–	Ki	2490 ± 200 nM
CC[C@@](O)(c1ccccc1)[C@H]1C[C@@]23CC[C@]1(OC)[C@@H]1Oc4c(O)ccc5c4[C@@]12CCN(CC1CC1)[C@@H]3C5	OPRD1	binding, radioligand displacement	CHO	together with: [3H]DPDPE	–	Ki	0.8 ± 0.05 nM
CCN1CCN(Cc2ccc(NC(=O)c3ccc(C)c(/C=C/c4cnc5[nH]ccc5c4OC)c3)cc2C(F)(F)F)CC1	WNK4 (Homo sapiens, UniProt Q96J92)	inhibitor, cell-based kinome screen	–	5 µM	reference: vehicle	log2 fold change	0.47

Excerpt of the above:
Structure (SMILES)	target	assay	test system	conditions	scale	quantity	result
CN1CC[C@]23c4c5ccc(O)c4O[C@H]2[C@H](NC(=O)c2cccc(I)c2)CC[C@@]3(O)[C@H]1C5	OPRD1	radioligand binding, competition binding	CHO cells, transfected, cell membranes	together with: [3H]DPDPE 1 nM	–	Ki	70.8 ± 15.4 nM
